Measurements gathered from unrelated publications.
Parts stem from different laboratories: compare values within a part only.

Series 1
Target: Interferon regulatory factor 5, full length, phosphomimetic (IRF5, Homo sapiens, UniProt Q13568-2, residues 1-514, K96S/S451D/S453D/S456D/S462D)
Method: protein-binding microarray
Molecule type: double-stranded DNA, one strand shown
Matrix: in vitro
Tested at: 250 nM
Notes: 60-bp whole probe
With: salmon DNA 0.4 mg/ml
Baseline: random background probes
Reading: higher = stronger binding
Endpoint: log fluorescence
Shared flanks, not repeated: GCCTAGCAC … GTCTTGATTCGCTTGACGCTGCTG
TCATCTTTTCATTTTCTACTGTGCTAG: 2.25 z-score
GACGAACTGGGGGCTGGAGACGTGCTA: 0.0057 z-score
TTAGATATCGGTTTCGATTAGTGCTAG: 10.5 z-score
TTAGGTCTCCTTATCCTCTAGTGCTAG: -0.0638 z-score
TTAGGTATCGACTTTCGGTTTGTGCTA: 9.97 z-score
TCATTCTCCTATTTAAGACTGTGCTAG: 0.692 z-score

Series 2
Target: Histone acetyltransferase KAT6A, both winged helices, GST fusion (KAT6A, Homo sapiens, UniProt Q92794, residues 1-181)
Method: protein binding microarray
Molecule type: double-stranded DNA, one strand shown
Matrix: in vitro
Tested at: not given
Notes: 8-mer, flanks averaged, mean of 2 arrays, mostly near background
Baseline: not given
Reading: higher = stronger binding
Endpoint: E-score
Construct (chain): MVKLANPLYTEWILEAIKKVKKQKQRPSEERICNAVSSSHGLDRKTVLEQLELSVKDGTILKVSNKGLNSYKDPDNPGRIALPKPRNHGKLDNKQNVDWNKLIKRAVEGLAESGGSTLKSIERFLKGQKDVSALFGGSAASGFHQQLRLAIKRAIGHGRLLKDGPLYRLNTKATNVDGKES
AAAATTGT: -0.178
GATCCAGA: -0.0512
GATAGGGC: -0.278

Series 3
Target: Cyclic AMP-dependent transcription factor ATF-1 (ATF1, Homo sapiens, UniProt P18846, residues 1-271, full length assumed)
Method: protein-binding microarray
Molecule type: double-stranded DNA, one strand shown
Matrix: in vitro
Tested at: not given
Notes: k-mer, scored over probes, only values ≥0.25
Reading: higher = stronger binding
Endpoint: E-score
Target sequence (chain): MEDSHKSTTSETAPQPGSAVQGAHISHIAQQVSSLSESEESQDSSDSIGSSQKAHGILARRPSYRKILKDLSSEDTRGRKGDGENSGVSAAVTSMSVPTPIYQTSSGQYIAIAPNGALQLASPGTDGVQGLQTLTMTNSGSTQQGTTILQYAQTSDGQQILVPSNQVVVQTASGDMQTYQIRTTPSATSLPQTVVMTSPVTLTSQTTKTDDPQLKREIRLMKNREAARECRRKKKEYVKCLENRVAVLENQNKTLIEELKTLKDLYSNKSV
ACGTGTC: 0.334
CGCTACG: 0.333
ACGTCAT: 0.496

Other studies, line by line
PhoQ, residues 284 288 289 292 302 303 SSTLSG  fold induction (PhoP, residues 12 14 15 18 19 TTLRV (Escherichia coli, UniProt P23836); Sort-seq, item: YFP reporter; E. coli; PhoQ-PhoP variant library, with: 10 µM Mg2+; baseline: high Mg2+ state, higher = stronger signaling): 13.3

Repeated from above (series 1):
TTAGATATCGGTTTCGATTAGTGCTAG: 10.5 z-score
GACGAACTGGGGGCTGGAGACGTGCTA: 0.0057 z-score
